# Results pooled from the literature.
# A part holds a random share of what one study measured. Changes are numbered by the printed parent chain.

# Sample 1
# Target: ABI1, truncated, D143A, DHFR fusion (Arabidopsis thaliana)
# Method: DHFR PCA, deep sequencing
# Matrix: yeast
# Setting: methotrexate growth selection, single substitutions
# Together with: (+)-ABA 0.0091 µM
# Baseline: wild-type fitted maximum
# Reading: higher = stronger binding
# Starting sequence: PYL1, truncated, DHFR fusion (Arabidopsis thaliana); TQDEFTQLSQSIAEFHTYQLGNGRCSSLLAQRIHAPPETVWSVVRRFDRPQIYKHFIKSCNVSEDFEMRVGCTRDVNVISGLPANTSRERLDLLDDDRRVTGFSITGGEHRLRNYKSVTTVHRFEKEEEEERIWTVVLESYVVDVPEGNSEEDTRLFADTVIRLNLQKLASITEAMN
Substitution,relative binding score
I105K,1.95%
E139G,-3.05%
A84E,17.8%
R98V,5.67%
E14P,4.81%
N22C,3.54%
E125G,35.5%
Q51Y,-16.3%
F66G,13%
E128K,14.7%
T73N,-1.55%
V161H,42.3%
A158R,-3.99%

# Sample 2
# Target: RNA binding protein fox-1 homolog 2, RRM domain, GST-SBP tag (RBFOX2, Homo sapiens, UniProt O43251-10, residues 100-194)
# Method: RNA Bind-n-Seq
# Molecule type: RNA
# Matrix: in vitro
# Tested at: 365 nM
# Setting: natural RNA segment, single round, ends assumed
# Baseline: no-protein control
# Reading: higher = stronger binding
# Shared flanks, not repeated: GGGAGUUCUACAGUCCGACGAUC … UGGAAUUCUCGGGUGCCAA
# Residues (chain): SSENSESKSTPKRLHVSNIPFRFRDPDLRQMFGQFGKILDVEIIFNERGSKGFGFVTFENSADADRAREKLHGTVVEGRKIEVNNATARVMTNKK
Sequence,RBNS enrichment (R)
AUUAAUAGUUACACAAGAUGUUUUCAUUACAAAAUAUGUACCUAUCUAUUGAUGGACUCUACAUCCUAUAUUGUGACAUGUAAGUCCUUUAAAAGGUGAAAAGUAUGAUU,0.306
GUUAGCACUGAUAGUCCUUUUUCCAAUGUUUUAUUGGGGAAUUAAAUAGUGUGAUGUUUGGAUUGAUAUCGUGAAAUCCUCAGCCGAGAAAUUGGGCUGGAUUGUGCUUU,0.5
UGAUACUGUGUGCGACGUGGAGAGAUUUAAUUAUUUGUAAUAAAGGAUUUGCUAUGGUCUAUUAAUUCCAAGUGGUACGCCUGUAUGUUUUUCCUUAAAAUUGAGUAUUU,1.32
UUCUGCCUGGACAUCAUAAAUGGGGACUUGGACCCUGAGGAGAGUCAGGCCACGGUAAGCCCUUCCCAGCUGAGAUAUGGGUGGCAUAAUUUGAGUCUUCUGGCAACAUU,1.02
UCUCUCCUGGCAUGAAAAUAAAGGAUUUUGUUGUUCCACUGCCCACUUCCCCCAUGUUGUCUUUCCCUUGGCCGCUGCCUCCUCUGGGUCACACUGCUUCUUAUCCUGAA,8.02
CUUUCUACCUCCCUUUUCGUUGCCUGAGGAGCUGGUGGUUUCAUGAGUUAAUGAUACAUCUUGCAAGGUGUACACAUAGAGAAAAAAACCUAAAAAUGUGGAAAAGCACG,4.06
GGGAGUGAGGUCAUUCCUGACCCGUGAUGCUUUCAAGGCUUGGUUUUUCUGAUAAUUAUUUUUGCCUGUCAUCCCAAAAACGUAUUGACAUGCGUGUAUAUUACCUGUGA,0.407
AAUCAAUUUAAUGUUUAAUGCAAAUCCAUUACAUGGUGCUAUUACAGGCUGACAAAAUGAUUCACACGAAUGUGACAACUCGGGCUCAGUUCACUCUGCUUCCCAACAGU,0.286
AUUAAUCAGGUUUUUAUUCAAUCAUAUAAAUGUAUUCCUUUGUAAUCAUUUUUGUUUAACUGAGGAUAUCUAGUGUCUGCUUCAUAGGGUGCUUUGAAAUAUAAAAUGAA,0.822
GUGACUUGAUGCUCUAAAUCAUUGUAGGAUUUACCGCUAGAUGGUUUUGAACCCUUGAACCUGUGAUUGUGACCCAUGAGGGGGGACCUUUCAGUGCUAAAGCUGAUCAU,0.54
UCUAAUUCUAGCCAAGCUUCUGUGUGAAGCUAUAAGGUCUGUGAAUGCCAUACGGCCCUUUAUUGCCAUCCUAUACUUGUAAAUACGAUCCUGCUCUCAAGUGAAAUGAG,1.01
GCUGUGGGAGAGACAAUUCAGUGGCAGCCCACUGGCUUCUCUACCCAUUCCACAGGAACCCUAUUCCUACCCCCACCCCUGCCCACAAAUGCCACUGUGAUCCACAGCUG,0.412

# Sample 3
# Target: Phosphate system positive regulatory protein PHO4, full length, GST-tagged (PHO4, Saccharomyces cerevisiae, UniProt P07270, residues 1-312)
# Method: competition protein-binding microarray
# Molecule type: double-stranded DNA, one strand shown
# Matrix: in vitro
# Tested at: 2 µM
# Setting: whole 60-bp probe, lowest competitor level
# Together with: Cbf1 competitor, 0.05 µM
# Reading: higher = stronger binding
# Shared flanks, not repeated: … GTCTTGATTCGCTTGACGCTGCTG
# Residues (chain): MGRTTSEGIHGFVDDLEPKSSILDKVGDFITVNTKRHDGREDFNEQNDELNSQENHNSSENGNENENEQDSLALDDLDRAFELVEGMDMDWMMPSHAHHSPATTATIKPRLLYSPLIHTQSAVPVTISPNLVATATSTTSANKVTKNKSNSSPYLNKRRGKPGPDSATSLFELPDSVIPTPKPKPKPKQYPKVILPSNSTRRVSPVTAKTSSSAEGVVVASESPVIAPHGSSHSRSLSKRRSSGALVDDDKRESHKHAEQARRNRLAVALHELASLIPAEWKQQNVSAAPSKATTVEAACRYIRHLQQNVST
Sequence,fluorescence intensity
CTTCTGTAAATTTGATTTGTGGGTGGACGCGCCCCG,4250 a.u.
GCGAATAATATGTTTTGCGTGGGTATCCCAGGAGCG,5070 a.u.
ACACTGAATCCGGGCAACGTGTCCAGAACTTGCATT,13200 a.u.
CTCTACTATGGCATCCACATGAAAACCAGTCTCAGA,5080 a.u.
TTGACCCGGAATCTATTCGTGACGGAAAGGTTAAGG,3770 a.u.
GGAGCCAACAGCTCAAACGTGCCAGGGACTGGTTAC,11400 a.u.
CATACCCAACCTTGGGGTGTGGGTGAAGATATTTGT,6830 a.u.
CTAACGAAGGTTTGTCACAACACTTACAAGCCAAGT,3920 a.u.
CTCTTCCCTCTATTTCACGTGAGTAAGCACAGAATA,11900 a.u.
CTAACGAAGGTTTGTCAGGTGGGTGACAAGCCAAGT,5120 a.u.
CGGGGTTAAGTTTGTCACATCACTTGCTTGCAGCAG,3970 a.u.
GCAAATCCTCCCACACATGTGACGCTTTGAATCAAG,10300 a.u.
TGCTAGAATACATCGCACGGCTCGCGGAAAGCAACC,4680 a.u.
CATACCCAACCTTGAGGCGTGGGTGAAGATATTTGT,8970 a.u.
TGGCGCCGCCGCCACCACGCGGCAGCTCTGATTGGA,9040 a.u.
GATACGCTCCTTGGCCTCGTGGTGATGCGCCAAAAC,9990 a.u.
AAGAGAAGAAAAAAGCGCGTGGTCGGAGCCGCGCTA,10500 a.u.
CTTTCCCGATCTTGTCGGGTGGGTGTAGCACATTTG,4800 a.u.
TGTTTGGGTTTTTAGCACGTCGTACACTGGCCTTTA,6120 a.u.
CTTCTGTAAATTTGCAAAGTGGGTGGACGCGCCCCG,3420 a.u.
TACTCAGAATATGAAAACGTGTCGGACGGGGATGAC,15600 a.u.
CTATCTAGTACCCGCCCCGTGGCAAAAAAAGAAGAC,12300 a.u.

# Sample 4
# Target: CEBPA, bZIP domain (human)
# Method: DHFR protein complementation
# Matrix: yeast
# Setting: single substitutions, most at no-binding floor
# Baseline: wild-type JUN-FOS pair
# Reading: higher = stronger binding
# Starting sequence: JUN, bZIP domain (human); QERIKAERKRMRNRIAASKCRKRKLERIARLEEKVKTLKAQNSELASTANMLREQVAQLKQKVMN; partner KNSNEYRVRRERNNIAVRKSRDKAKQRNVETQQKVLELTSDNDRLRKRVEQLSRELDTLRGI
Substitution,binding fitness [natural log]
L38D,-1.52
E33M,-1.44
E33C,-1.48
Q41V,-1.46
S43E,-1.36
L52D,-1.52
A46W,-1.46
A40N,-1.52
S43Y,-1.49
A40G,-1.41
T48P,-1.51
A49S,-1.52
E32A,-1.39
R30G,-1.36
E32P,-1.53
L59S,-1.47

# Sample 5
# Target: CCND3, cyclin fold, Cln2 fusion (human)
# Method: yeast growth competition, sequencing
# Matrix: yeast
# Setting: weak parent motif
# Baseline: not given
# Reading: higher = stronger binding
# Starting sequence: SLBP docking peptide (human); ARYKRKLLINDFG; partner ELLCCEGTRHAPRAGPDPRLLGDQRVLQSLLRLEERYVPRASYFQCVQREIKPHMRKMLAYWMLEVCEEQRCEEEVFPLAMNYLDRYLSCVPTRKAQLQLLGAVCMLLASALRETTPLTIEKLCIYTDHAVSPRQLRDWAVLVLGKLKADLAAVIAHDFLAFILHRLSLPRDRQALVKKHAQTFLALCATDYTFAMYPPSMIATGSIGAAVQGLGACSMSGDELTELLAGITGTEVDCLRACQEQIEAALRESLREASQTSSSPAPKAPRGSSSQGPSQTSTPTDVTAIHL
Substitution,normalised enrichment score
N10V,0.101
A1D,0.171
G13K,0.188
I9T,0.164
I9C,0.166
I9W,0.133
R2S,0.047
L8Q,0.121
L8F,0.153
I9N,0.172
I9M,0.113
R5Q,0.0797
I9G,0.0273
F12N,0.0856
I9P,0.253
L7M,0.178
G13P,0.188
D11G,0.0752
K4N,0.142
R5A,0.14
R5G,0.101
I9K,0.0399
G13E,0.186
K4Q,0.0286
R5D,0.174

# Some of these lines once more (sample 5):
Substitution,normalised enrichment score
I9C,0.166
I9W,0.133
R2S,0.047
L8Q,0.121
L8F,0.153
I9N,0.172
I9M,0.113
R5Q,0.0797
I9G,0.0273
F12N,0.0856
I9P,0.253
L7M,0.178
